Published values of several laboratories.
Lines come from different studies, so protocols differ. Several values in a cell are separate wells, animals, samples, runs or records. ± marks the error that the study gave.
Nuclear receptor subfamily 2 group C member 2 ligand-binding domain: Nuclear receptor subfamily 2 group C member 2, ligand-binding domain (Homo sapiens, UniProt P49116)
Chain of UniProt P49116 (whole entry, looked up): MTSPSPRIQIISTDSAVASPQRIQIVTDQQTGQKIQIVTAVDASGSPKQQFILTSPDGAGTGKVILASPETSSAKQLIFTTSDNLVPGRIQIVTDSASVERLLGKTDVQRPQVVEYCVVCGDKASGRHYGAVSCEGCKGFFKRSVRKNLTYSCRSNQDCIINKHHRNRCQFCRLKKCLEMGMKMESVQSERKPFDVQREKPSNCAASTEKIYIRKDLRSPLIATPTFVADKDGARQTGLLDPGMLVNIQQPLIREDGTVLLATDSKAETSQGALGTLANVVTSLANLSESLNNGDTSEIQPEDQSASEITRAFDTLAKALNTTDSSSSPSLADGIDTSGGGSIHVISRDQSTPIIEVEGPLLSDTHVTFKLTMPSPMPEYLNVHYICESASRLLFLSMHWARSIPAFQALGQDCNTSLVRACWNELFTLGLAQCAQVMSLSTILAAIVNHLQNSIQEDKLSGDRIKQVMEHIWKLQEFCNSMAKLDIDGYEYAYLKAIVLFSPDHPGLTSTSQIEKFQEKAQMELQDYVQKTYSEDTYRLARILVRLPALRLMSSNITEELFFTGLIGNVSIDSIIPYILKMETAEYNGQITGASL
TOP2A: DNA topoisomerase 2-alpha (TOP2A, Homo sapiens, UniProt P11388)
Chain of UniProt P11388 (whole entry, looked up): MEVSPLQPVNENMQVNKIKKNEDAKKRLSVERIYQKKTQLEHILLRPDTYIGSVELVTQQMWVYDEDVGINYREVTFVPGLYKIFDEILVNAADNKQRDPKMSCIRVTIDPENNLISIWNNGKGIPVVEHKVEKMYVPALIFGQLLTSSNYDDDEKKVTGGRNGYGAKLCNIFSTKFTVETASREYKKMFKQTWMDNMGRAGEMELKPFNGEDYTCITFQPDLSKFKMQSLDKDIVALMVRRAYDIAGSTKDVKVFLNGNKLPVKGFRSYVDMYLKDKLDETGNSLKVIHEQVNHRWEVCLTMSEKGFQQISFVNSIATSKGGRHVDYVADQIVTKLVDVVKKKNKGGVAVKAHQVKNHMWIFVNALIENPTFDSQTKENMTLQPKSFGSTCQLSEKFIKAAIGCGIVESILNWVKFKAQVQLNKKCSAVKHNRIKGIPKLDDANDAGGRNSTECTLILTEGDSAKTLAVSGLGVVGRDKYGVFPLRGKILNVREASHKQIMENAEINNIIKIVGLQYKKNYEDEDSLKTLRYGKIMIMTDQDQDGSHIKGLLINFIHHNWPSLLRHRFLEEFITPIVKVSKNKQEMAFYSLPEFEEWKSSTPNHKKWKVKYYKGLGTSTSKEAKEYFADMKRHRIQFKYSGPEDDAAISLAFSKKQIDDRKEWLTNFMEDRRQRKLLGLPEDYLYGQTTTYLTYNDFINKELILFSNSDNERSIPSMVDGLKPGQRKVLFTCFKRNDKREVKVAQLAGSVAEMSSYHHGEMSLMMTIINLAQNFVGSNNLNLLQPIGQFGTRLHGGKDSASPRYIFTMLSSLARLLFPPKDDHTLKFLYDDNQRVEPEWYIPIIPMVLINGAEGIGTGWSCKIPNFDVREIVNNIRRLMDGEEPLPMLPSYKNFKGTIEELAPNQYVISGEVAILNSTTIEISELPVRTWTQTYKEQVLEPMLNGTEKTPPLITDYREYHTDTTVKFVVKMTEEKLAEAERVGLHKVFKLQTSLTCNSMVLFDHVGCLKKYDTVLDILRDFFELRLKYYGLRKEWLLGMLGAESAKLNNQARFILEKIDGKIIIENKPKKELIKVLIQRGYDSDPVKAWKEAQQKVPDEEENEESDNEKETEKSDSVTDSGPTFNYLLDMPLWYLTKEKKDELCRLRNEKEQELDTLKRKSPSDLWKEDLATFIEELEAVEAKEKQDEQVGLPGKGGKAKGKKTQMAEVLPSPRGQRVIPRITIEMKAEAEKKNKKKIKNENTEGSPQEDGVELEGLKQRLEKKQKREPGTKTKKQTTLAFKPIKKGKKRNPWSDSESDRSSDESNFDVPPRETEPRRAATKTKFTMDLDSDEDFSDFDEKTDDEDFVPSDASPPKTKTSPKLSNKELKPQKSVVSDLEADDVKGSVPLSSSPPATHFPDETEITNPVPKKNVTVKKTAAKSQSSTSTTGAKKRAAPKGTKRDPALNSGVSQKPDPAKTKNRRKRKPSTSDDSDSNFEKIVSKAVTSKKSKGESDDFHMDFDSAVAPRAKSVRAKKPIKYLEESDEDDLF
GUK1: GUK1 (Homo sapiens, UniProt Q16774)
Chain of UniProt Q16774 (whole entry, looked up): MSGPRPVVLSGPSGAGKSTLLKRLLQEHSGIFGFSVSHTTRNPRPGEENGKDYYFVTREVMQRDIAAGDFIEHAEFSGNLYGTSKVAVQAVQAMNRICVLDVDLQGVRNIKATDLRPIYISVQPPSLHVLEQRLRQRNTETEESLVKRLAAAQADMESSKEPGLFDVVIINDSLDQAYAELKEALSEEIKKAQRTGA
HTR4: 5-hydroxytryptamine receptor 4 (HTR4, Homo sapiens, UniProt Q13639)
T1: ssRNA, hairpin with 1x1 G/G internal loops (Homo sapiens); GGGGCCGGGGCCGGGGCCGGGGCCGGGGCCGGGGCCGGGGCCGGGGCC
Chain of UniProt O14980 (whole entry, looked up): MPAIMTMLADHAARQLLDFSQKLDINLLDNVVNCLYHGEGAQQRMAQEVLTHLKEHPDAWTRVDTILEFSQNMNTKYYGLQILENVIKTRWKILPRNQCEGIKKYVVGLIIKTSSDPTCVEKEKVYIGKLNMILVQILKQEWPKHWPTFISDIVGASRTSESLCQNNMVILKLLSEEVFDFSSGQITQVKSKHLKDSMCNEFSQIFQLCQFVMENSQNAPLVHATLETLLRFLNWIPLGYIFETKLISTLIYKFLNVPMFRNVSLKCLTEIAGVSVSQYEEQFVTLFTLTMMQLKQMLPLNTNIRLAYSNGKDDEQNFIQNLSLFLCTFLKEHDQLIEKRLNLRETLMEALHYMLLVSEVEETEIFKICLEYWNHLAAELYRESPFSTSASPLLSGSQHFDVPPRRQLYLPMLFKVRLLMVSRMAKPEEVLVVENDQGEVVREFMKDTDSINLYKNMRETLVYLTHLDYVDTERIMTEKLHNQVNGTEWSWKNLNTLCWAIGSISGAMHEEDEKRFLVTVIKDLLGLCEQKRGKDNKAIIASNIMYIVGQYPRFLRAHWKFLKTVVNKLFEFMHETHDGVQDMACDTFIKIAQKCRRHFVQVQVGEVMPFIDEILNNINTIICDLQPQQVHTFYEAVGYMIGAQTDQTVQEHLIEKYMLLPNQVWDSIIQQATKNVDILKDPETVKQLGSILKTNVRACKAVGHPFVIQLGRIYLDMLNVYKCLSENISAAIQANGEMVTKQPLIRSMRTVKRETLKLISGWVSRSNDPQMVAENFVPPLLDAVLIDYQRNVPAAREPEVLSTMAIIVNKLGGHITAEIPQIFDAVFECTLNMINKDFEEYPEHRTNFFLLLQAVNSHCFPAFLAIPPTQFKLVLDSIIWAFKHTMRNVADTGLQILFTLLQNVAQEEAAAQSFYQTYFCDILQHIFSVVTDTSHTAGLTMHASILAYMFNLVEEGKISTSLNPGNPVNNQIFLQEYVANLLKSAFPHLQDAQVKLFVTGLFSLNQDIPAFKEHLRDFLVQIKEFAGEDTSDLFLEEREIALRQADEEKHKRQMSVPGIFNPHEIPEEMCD
Chain of UniProt P27361 (whole entry, looked up): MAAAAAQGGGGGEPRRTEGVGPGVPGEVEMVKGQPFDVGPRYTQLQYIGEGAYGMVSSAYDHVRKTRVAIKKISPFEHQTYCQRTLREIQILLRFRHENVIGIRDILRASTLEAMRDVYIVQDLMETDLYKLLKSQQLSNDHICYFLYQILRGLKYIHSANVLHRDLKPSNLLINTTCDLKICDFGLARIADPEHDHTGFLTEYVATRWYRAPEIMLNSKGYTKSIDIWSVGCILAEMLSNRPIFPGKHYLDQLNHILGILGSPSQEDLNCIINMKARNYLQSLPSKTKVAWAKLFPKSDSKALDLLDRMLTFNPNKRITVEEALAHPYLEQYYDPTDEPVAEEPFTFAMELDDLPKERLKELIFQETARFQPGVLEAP
Chain of UniProt Q9BQG0 (whole entry, looked up): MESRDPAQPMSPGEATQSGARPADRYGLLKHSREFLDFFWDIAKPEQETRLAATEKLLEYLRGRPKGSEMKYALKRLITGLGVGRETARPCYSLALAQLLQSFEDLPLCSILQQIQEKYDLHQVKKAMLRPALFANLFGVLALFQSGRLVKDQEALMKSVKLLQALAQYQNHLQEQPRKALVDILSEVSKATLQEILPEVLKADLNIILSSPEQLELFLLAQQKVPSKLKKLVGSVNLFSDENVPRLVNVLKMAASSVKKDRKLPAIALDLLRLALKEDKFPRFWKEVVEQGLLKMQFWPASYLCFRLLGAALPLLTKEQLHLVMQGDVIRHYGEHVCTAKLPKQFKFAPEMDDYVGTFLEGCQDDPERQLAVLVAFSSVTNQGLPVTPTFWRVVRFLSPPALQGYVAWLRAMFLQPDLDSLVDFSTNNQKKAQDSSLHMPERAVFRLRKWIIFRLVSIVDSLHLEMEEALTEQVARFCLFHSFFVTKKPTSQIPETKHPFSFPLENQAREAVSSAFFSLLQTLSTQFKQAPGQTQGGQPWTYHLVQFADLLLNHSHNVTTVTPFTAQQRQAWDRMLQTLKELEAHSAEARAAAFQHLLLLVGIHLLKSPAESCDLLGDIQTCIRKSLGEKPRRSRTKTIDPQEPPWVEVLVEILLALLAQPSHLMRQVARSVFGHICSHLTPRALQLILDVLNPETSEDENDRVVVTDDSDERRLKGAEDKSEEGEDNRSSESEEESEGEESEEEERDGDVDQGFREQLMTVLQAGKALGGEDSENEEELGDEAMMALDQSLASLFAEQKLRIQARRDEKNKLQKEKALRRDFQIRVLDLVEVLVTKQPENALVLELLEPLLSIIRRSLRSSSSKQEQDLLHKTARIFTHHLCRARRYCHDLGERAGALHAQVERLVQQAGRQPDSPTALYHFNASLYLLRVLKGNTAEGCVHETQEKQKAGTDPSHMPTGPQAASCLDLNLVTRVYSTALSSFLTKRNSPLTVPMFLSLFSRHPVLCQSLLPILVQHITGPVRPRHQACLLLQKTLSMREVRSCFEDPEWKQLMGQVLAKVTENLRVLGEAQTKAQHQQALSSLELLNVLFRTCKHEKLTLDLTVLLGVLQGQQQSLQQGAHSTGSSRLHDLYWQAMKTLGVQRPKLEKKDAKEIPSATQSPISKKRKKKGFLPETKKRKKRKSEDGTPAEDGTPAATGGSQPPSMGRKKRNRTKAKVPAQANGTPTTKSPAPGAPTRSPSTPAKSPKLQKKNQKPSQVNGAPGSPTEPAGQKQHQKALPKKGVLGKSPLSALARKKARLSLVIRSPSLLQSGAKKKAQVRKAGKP

`Nc1ncnc2c1ncn2[C@@H]1O[C@H](C[C@@H](N)CC[C@H](N)C(=O)O)[C@@H](O)[C@H]1O` — result for “PBM peptide binding”: “no effect” (PRMT5/MEP50 complex (Homo sapiens, UniProt O14744+Q9BQA1); RIOK1 PBM peptide binding, fluorescence polarization; 30 µM, with: fluorescent RIOK1 PBM peptide).
With `Nc1[nH]nc2nnc(-c3c(-c4ccccc4)nn4ccccc34)cc12` the kinase activity was 30.4% and 15.9% and 30.8% (MAPK3 (Homo sapiens, UniProt P27361); ADP-Glo; 3.98 µM, with: MBP substrate).
`O=C(O)[C@@H]1CCCN1c1ncnc2[nH]cnc12` (racemic) — result for “log fold enrichment”: -0.0605 (F-box only protein 22, with SKP1 (Homo sapiens, UniProt Q8NEZ5); binding, affinity selection mass spectrometry; reference: other proteins in batch).
With `CN(C(=O)n1cnc(-c2ccc[n+]([O-])c2)c1)C1CCCCC1` the ED50 was 0.011 mg/kg (Faah (Mus musculus, UniProt O08914); enzyme activity, inhibitor; NMRI mouse, liver; oral, 1 h).
`CC(=O)c1ccc2cc(S(=O)(=O)Nc3ccccc3)ccc2c1` gave a log IC50 of 0.768 (STAT3 (Homo sapiens, UniProt P40763); tyrosine phosphorylation, inhibitor, ELISA, item: phospho-Tyr705).
For `C=C(c1ccc(C(=O)O)cc1)c1cc2c(cc1C)C(C)(C)CCC2(C)C`, the koff was 2.82e-05 s⁻¹ (Nuclear receptor subfamily 2 group C member 2 ligand-binding domain; SPR imaging; 600 nM).
`O=C(O)c1ccc(Nc2ncc3c(n2)-c2ccc(Cl)cc2C(c2c(F)cccc2F)=NC3)cc1` gave a remaining activity of 95% (SAPK2b(h); kinase activity; 1 µM).
`O=c1nc(SCc2cc(F)cc(C(F)(F)F)c2)nc(SCc2ccc3nc(Cl)ccc3c2)[nH]1` gave a linear DNA of 10.9% and 9.36% (TOP2A; DNA cleavage, competition with etoposide; 125 µM, with: etoposide 50 µM).
The koff of `CCN(CC)C(=O)C1(c2ccccc2)CC1CN.Cl` (stereo not drawn) is reported as 5.15e-06 s⁻¹ (Nuclear receptor subfamily 2 group C member 2 ligand-binding domain; SPR imaging; 600 nM).
`CC1CCCN(C(=O)c2cc3ncccn3n2)C1` (stereo not drawn) — result for “log fold enrichment”: 0.144 (YTH domain-containing protein 1 (Homo sapiens, UniProt Q96MU7); binding, affinity selection mass spectrometry; reference: other proteins in batch).
With `CC(C)C[C@@H]1NC(=O)[C@H](C(C)C)NC(=O)CNC(=O)[C@H](CC(N)=O)NC(=O)[C@@H]2CCCN2C(=O)[C@H](Cc2ccc(O)cc2)NC(=O)[C@H](CCCNC(=N)N)NC(=O)[C@H](C)NC(=O)[C@@H](NC(=O)[C@H](CCCCN)NC(=O)[C@@H]2CCCN2C(=O)[C@H](CO)NC(=O)[C@H](C)NC(=O)[C@@H](N)Cc2ccc(O)cc2)CSSC[C@@H](C(=O)N[C@H](C(N)=O)[C@@H](C)O)NC(=O)[C@H](C)NC1=O` the binding stoichiometry was 0.127 (Alpha-2-HS-glycoprotein, asialo (AHSG, Bos taurus, UniProt P12763); isothermal titration calorimetry; concentration not given, pH 7.0, 25 °C, with: asialofetuin).
For `NC(=O)CN1CCCN(C(=O)CN2CCCN(Cc3cccc4cnccc34)CC2)CC1`, binding read “binds” (T1, ssRNA, hairpin with 1x1 G/G internal loops (Homo sapiens); competitor, competitive Chem-CLIP; 100 µM).
With `CC[C@@H](C)[C@@H](NC(=O)[C@@H](Cc1ccc(O)cc1)NC(=O)[C@H]1CCCN1C(=O)[C@@H](CCCNC(=N)N)NC(=O)[C@H](N)Cc1c[nH]cn1)C(=O)N[C@H](C)C(=O)N[C@H](Cc1c[nH]cn1)C(=O)N[C@H](CCCNC(=N)N)C(=O)N[C@@H](C(=O)N[C@H](Cc1ccc(O)cc1)C(=O)N[C@H](CO)C(=O)N[C@H](Cc1ccccc1)C(N)=O)C(C)C` the surface expression was 1.07 and 1.06 (Transferrin receptor protein 1 (Tfrc, Mus musculus, UniProt Q62351); flow cytometry; RAW264.7; 24 h, pH 7.4, unit not given; reference: 0 h).
For `Nc1ncnc2c1ncn2[C@@H]1O[C@H](COP(=O)(O)OP(=O)(O)O)[C@@H](O)[C@H]1O`, the Hill coefficient was about 3 (ATP-sensitive inward rectifier potassium channel 1 (Rattus norvegicus, UniProt P35560); channel open probability, inhibitor, inside-out patch clamp; pH 7.4, Mg2+-free, 1.6 mM).
`CC(=O)NCCCC[C@H](NC(=O)CNC(=O)CNC(=O)[C@H](CCCCNC(C)=O)NC(=O)CNC(=O)[C@H](CCCNC(=N)N)NC(=O)CNC(=O)[C@@H](N)CO)C(=O)NCC(=O)N[C@@H](CC(C)C)C(=O)NCC(N)=O` has a ΔH of -20.6 kJ/mol (BRD1 (Homo sapiens, UniProt O95696, R585F); binding, ITC; 15 °C, with: peptide 2 mM).
`CC[C@@H]1[C@H](F)C(=O)N[C@@H]1COc1nccc2cc(C(N)=O)c(OC)cc12` gave an inhibition of 10% (CAMK2G (Homo sapiens, UniProt Q13555); ATP-site probe binding, ActivX profiling; THP-1 cell lysate; 0.2 mM, Lys1 site).
For `C[C@@H]1CC[C@]2(C(=O)O)CC[C@]3(C)C(=CC[C@@H]4[C@@]5(C)CC[C@H](O)[C@@](C)(CO)[C@@H]5CC[C@]43C)[C@@H]2[C@]1(C)O`, the Km was 11.8 ± 0.715 µM (UGT enzymes, human; glucuronidation, substrate; human liver microsomes; range 0.2 to 50 µM).
`O=S(=O)(O)O` gave a reaction velocity of 0.106 µM/s and 0.109 µM/s and 0.114 µM/s (GUK1; enzyme activity, NADH-coupled; 1 mM, with: ATP 500 µM).
`C=CC(=O)N1CCC(COCC(=O)N2CCN(c3nc(-c4cnc(N)nc4C(F)F)nc(N4CCOC[C@@H]4C)n3)CC2)CC1` gave a remaining binding of 100% (RIPK1 (Homo sapiens, UniProt Q13546); KINOMEscan; 1 µM).
With `CC[C@H](C)[C@@H]1NC(=O)[C@H]([C@@H](C)CC)NC(=O)[C@@H](Cc2ccc(O)cc2)NC(=O)CSC[C@@H](C(N)=O)NC(=O)[C@H](CCCNC(=N)N)NC(=O)[C@H](CCCCN)NC(=O)[C@H](CC(C)C)NC(=O)[C@H](CO)NC(=O)[C@H](CO)NC(=O)[C@H](CC(C)C)NC(=O)[C@H](Cc2ccccc2)NC(=O)[C@H](C(C)C)NC(=O)CNC(=O)[C@H](CC(C)C)NC(=O)[C@@H]2CCCN2C(=O)[C@H]([C@@H](C)O)NC(=O)[C@H](CC(=O)O)NC1=O` the ΔG was -39.75 ± 0.377 kJ/mol (VPS35/VPS29 (Homo sapiens, UniProt Q96QK1+Q9UBQ0); binding, ITC; 25 °C, heterodimer).
`Nc1ncnc2c1ncn2[C@@H]1O[C@H](COP(=O)(O)OP(=O)(O)OP(=O)(O)O)[C@@H](O)[C@H]1O` gave a kcat of 39 ± 22 s⁻¹ (Hexokinase-3 (HK3, Homo sapiens, UniProt P52790, N221A); substrate; mutant N221A, with: glucose 0.5 mM).
`Nc1ncnc2c1ncn2[C@@H]1O[C@H](COP(=O)(O)OP(=O)(O)O)[C@@H](O)[C@H]1O` gave a ΔH of -0.403 kJ/mol (GUK1; binding, isothermal titration calorimetry; molar ratio 3.736, fitted curve).
`Cc1ccccc1C1CC(=O)c2c(C)nc(N)nc2C1` (stereo not drawn) gave a fold enrichment of 0.895 (DCAF1 (Homo sapiens, UniProt Q9Y4B6); binding, affinity selection mass spectrometry; reference: other proteins in batch).
`C[C@H](N)C(=O)N[C@@H](CCCNC(=N)N)C(=O)N[C@H](C(=O)N[C@@H](CCCCN)C(=O)N[C@@H](CCC(N)=O)C(=O)N[C@H](C(=O)N[C@@H](C)C(=O)N[C@@H](CCCNC(=N)N)C(=O)N[C@@H](CCCCN)C(=O)N[C@@H](CO)C(=O)O)[C@@H](C)O)[C@@H](C)O` — result for “binding free energy”: -31.1 kJ/mol (Transcriptional regulator ATRX (ATRX, Homo sapiens, UniProt P46100, F284Y/K251R); isothermal titration calorimetry; pH 7.5, 25.0 °C).
`CCC1=C(C)CN(C(=O)NCCc2ccc(S(=O)(=O)NC(=O)N[C@H]3CC[C@H](C)CC3)cc2)C1=O` has a koff of 9.51e-07 s⁻¹ (Nuclear receptor subfamily 2 group C member 2 ligand-binding domain; SPR imaging; 600 nM).
For `COc1ccc2c(c1)C(=O)N(CCN1CCN(c3ccccc3OC)CC1)C2`, the inhibition was 11.8% (HTR4; radioligand binding; concentration not given).
Under “thermal stability ratio”, `O=C(COP(=O)(O)O)[C@@H](O)[C@H](O)[C@H](O)COP(=O)(O)O` is recorded as 0.778 and 0.636 and 0.458 (Myb-binding protein 1A (Homo sapiens, UniProt Q9BQG0); thermal proteome profiling, item: MYBBP1A; HepG2 cell lysate; concentration not given, 57 over 37 °C; reference: compound over control).
`CC(Nc1nc(N2CCCC2)nc2ccccc12)c1ccccc1` (stereo not drawn) — result for “cells with nuclear reporter”: 4.23% and 4.97% and 4.85% (Exportin-1 (XPO1, Homo sapiens, UniProt O14980); nuclear export, high content imaging; HeLa Kyoto reporter; 31.65 µM, 2 h).
`C[S+](CC[C@H](N)C(=O)O)C[C@H]1O[C@@H](n2cnc3c(N)ncnc32)[C@H](O)[C@@H]1O` (stereo partly drawn): “ΔG of binding” -22 kJ/mol (O-methyltransferase (Sorghum bicolor, UniProt A0A1B6PFV1); concentration not given, with: PTR+).
For `Cc1ccc(OC[C@H]2CN(CCN3CCc4ccccc43)CCO2)cn1`, the inhibition was 13.1% (HTR4; radioligand binding; concentration not given).
For `Nc1ncnc2c1ncn2[C@@H]1O[C@H](COP(=O)(O)CP(=O)(O)OP(=O)(O)O)[C@@H](O)[C@H]1O`, the calcium influx was 100% and 85.7% and 97.5% (P2X purinoceptor 1 (P2RX1, Homo sapiens, UniProt P51575, K136A); calcium influx; 3.16 µM; reference: ionomycin response).
With `Nc1nc2c(ncn2[C@@H]2O[C@H](COP(=O)(O)O)[C@@H](O)[C@H]2O)c(=O)[nH]1` the reaction velocity was 0.0606 µM/s and 0.0691 µM/s and 0.0721 µM/s (GUK1; enzyme activity, NADH-coupled; 250 µM, with: KCl 150 mM).
`O=C(C1CCCCC1)N1CC(=O)N2CCc3ccccc3C2C1` (stereo not drawn) has a koff of 2.3e-05 s⁻¹ (Nuclear receptor subfamily 2 group C member 2 ligand-binding domain; SPR imaging; 600 nM).
`CC[C@H](C)[C@H](NC(=O)[C@H](CCC(=O)O)NC(=O)[C@H](CCC(=O)O)NC(=O)[C@@H]1CCCN1C(=O)[C@H](CC(=O)O)NC(=O)[C@H](C)NC(=O)[C@H](CCC(N)=O)NC(=O)[C@@H](NC(=O)[C@H](C)NC(=O)[C@@H](NC(=O)[C@H](CO)NC(=O)[C@@H](NC(=O)[C@H](CCCCN)NC(=O)[C@@H](N)Cc1ccc(O)cc1)[C@@H](C)O)C(C)C)[C@@H](C)O)C(=O)N[C@H](C(=O)N[C@H](C(=O)N[C@@H](CC(C)C)C(=O)N[C@@H](COP(=O)(O)O)C(=O)N[C@@H](CC(=O)O)C(=O)N[C@@H](COP(=O)(O)O)C(=O)N[C@@H](CC(=O)O)C(=O)O)C(C)C)[C@@H](C)CC` has a -TΔS of -46.9 ± 2.09 kJ/mol (Small ubiquitin-related modifier 1, residues 17-97 (Homo sapiens, UniProt P63165, C52A); isothermal titration calorimetry; pH 7.4, N-terminally truncated SUMO1).
`O=c1nc(SCc2ccc(C(F)(F)F)cc2)nc(SCc2csc3ccc(Cl)cc23)[nH]1` has a decatenated DNA of 0% (TOP2A; decatenation; 0.12 µM, replicate 1).
`Clc1ccc(C(Cn2ccnc2)OCc2ccsc2Cl)c(Cl)c1` (stereo not drawn) gave a koff of 3.97e-07 s⁻¹ (Nuclear receptor subfamily 2 group C member 2 ligand-binding domain; binding).

A few entries again:
With `CC[C@H](C)[C@@H]1NC(=O)[C@H]([C@@H](C)CC)NC(=O)[C@@H](Cc2ccc(O)cc2)NC(=O)CSC[C@@H](C(N)=O)NC(=O)[C@H](CCCNC(=N)N)NC(=O)[C@H](CCCCN)NC(=O)[C@H](CC(C)C)NC(=O)[C@H](CO)NC(=O)[C@H](CO)NC(=O)[C@H](CC(C)C)NC(=O)[C@H](Cc2ccccc2)NC(=O)[C@H](C(C)C)NC(=O)CNC(=O)[C@H](CC(C)C)NC(=O)[C@@H]2CCCN2C(=O)[C@H]([C@@H](C)O)NC(=O)[C@H](CC(=O)O)NC1=O` the ΔG was -39.75 ± 0.377 kJ/mol (VPS35/VPS29 (Homo sapiens, UniProt Q96QK1+Q9UBQ0); binding, ITC; 25 °C, heterodimer).
For `C[C@@H]1CC[C@]2(C(=O)O)CC[C@]3(C)C(=CC[C@@H]4[C@@]5(C)CC[C@H](O)[C@@](C)(CO)[C@@H]5CC[C@]43C)[C@@H]2[C@]1(C)O`, the Km was 11.8 ± 0.715 µM (UGT enzymes, human; glucuronidation, substrate; human liver microsomes; range 0.2 to 50 µM).
`C[S+](CC[C@H](N)C(=O)O)C[C@H]1O[C@@H](n2cnc3c(N)ncnc32)[C@H](O)[C@@H]1O` (stereo partly drawn): “ΔG of binding” -22 kJ/mol (O-methyltransferase (Sorghum bicolor, UniProt A0A1B6PFV1); concentration not given, with: PTR+).
